# Measured values pooled from the literature.
# Protein sequences, listed by entry. Tags and fused reporters are not part of them. Residues count along the entry.
# UniProt Q14833, 33-912 limits assumed: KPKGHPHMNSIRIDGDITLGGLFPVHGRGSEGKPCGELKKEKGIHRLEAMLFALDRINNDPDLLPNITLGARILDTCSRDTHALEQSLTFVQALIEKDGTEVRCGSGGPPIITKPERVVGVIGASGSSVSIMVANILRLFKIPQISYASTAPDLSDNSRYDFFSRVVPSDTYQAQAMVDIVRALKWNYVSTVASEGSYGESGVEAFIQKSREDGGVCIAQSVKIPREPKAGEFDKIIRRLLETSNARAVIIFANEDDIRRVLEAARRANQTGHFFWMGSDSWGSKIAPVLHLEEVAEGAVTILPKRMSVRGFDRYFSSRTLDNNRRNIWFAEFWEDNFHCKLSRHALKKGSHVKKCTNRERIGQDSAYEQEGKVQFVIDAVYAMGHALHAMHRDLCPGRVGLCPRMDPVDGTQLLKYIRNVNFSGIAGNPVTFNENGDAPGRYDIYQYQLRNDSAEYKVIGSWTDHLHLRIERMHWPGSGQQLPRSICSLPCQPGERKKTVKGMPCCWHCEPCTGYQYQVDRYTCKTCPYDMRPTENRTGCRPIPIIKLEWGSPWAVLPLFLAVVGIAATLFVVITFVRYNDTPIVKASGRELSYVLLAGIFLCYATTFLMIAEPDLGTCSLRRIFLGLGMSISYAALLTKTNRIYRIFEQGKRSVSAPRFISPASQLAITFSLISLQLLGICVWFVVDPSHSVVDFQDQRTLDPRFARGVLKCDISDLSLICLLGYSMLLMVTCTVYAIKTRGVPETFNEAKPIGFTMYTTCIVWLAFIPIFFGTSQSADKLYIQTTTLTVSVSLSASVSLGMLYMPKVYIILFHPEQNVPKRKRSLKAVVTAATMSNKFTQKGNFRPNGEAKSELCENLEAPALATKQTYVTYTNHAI
# UniProt P25090, whole entry: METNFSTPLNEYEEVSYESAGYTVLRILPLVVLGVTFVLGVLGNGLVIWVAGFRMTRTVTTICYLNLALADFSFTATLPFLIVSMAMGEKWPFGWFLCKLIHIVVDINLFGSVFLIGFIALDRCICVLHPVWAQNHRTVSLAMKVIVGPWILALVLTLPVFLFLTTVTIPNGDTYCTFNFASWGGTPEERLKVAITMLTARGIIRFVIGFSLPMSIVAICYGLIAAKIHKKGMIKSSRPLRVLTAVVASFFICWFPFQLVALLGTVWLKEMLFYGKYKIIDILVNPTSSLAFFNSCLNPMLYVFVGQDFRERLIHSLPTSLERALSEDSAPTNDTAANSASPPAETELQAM
# UniProt P43220, whole entry, looked up: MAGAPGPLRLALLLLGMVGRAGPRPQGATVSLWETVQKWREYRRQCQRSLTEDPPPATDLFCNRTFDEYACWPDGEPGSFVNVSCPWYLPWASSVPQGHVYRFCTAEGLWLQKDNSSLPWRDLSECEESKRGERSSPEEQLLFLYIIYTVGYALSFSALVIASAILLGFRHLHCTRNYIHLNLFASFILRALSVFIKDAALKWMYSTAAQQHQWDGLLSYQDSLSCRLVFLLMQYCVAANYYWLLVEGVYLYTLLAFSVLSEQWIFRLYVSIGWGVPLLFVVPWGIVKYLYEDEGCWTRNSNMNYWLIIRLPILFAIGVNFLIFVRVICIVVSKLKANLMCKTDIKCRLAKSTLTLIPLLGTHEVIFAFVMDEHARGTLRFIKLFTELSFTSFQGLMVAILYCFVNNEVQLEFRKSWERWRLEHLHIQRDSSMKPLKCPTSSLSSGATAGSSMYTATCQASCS
# UniProt Q3UFF7, whole entry: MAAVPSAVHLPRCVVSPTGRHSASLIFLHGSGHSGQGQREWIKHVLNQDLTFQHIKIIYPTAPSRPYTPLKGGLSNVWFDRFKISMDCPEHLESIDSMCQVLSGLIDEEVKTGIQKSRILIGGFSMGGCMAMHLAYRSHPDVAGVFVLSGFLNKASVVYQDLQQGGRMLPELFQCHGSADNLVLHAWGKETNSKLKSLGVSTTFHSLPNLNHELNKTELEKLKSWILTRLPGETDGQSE
# UniProt P31423, 33-912 limits assumed: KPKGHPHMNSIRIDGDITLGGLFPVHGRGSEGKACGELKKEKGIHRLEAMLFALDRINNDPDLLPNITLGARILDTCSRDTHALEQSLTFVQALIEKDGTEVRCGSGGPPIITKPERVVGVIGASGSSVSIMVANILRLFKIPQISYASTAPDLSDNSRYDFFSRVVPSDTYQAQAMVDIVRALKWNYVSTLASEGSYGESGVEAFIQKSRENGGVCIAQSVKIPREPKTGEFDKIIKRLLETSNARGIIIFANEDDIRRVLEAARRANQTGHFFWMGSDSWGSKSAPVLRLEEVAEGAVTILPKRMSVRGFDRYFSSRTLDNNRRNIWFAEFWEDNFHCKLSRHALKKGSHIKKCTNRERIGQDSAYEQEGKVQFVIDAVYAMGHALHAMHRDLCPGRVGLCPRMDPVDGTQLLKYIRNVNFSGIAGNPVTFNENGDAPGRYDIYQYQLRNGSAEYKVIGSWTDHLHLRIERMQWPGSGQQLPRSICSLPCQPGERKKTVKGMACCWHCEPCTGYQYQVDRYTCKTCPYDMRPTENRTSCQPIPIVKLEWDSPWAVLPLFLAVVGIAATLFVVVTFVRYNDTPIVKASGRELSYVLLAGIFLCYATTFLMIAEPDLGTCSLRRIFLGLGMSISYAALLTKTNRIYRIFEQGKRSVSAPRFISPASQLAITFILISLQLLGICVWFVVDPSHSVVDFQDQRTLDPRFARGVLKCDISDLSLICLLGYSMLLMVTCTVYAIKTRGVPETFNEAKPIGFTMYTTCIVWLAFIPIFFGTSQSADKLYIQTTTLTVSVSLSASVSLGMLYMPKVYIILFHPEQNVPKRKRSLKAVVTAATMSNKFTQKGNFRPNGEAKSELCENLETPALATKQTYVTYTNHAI
# UniProt P47895, whole entry: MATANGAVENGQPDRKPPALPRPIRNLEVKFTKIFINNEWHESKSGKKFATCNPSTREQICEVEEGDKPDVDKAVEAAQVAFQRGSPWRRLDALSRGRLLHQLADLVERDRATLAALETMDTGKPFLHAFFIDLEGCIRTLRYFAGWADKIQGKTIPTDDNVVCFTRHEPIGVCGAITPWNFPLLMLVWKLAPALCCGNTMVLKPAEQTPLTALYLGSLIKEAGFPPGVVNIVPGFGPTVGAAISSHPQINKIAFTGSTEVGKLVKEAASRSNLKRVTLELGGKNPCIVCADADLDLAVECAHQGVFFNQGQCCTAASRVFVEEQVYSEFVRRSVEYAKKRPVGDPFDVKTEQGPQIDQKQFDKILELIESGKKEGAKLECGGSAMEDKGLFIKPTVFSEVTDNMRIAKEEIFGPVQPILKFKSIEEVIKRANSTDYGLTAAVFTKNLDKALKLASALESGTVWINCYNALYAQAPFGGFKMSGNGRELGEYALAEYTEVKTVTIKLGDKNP
# UniProt Q5JUK3, whole entry: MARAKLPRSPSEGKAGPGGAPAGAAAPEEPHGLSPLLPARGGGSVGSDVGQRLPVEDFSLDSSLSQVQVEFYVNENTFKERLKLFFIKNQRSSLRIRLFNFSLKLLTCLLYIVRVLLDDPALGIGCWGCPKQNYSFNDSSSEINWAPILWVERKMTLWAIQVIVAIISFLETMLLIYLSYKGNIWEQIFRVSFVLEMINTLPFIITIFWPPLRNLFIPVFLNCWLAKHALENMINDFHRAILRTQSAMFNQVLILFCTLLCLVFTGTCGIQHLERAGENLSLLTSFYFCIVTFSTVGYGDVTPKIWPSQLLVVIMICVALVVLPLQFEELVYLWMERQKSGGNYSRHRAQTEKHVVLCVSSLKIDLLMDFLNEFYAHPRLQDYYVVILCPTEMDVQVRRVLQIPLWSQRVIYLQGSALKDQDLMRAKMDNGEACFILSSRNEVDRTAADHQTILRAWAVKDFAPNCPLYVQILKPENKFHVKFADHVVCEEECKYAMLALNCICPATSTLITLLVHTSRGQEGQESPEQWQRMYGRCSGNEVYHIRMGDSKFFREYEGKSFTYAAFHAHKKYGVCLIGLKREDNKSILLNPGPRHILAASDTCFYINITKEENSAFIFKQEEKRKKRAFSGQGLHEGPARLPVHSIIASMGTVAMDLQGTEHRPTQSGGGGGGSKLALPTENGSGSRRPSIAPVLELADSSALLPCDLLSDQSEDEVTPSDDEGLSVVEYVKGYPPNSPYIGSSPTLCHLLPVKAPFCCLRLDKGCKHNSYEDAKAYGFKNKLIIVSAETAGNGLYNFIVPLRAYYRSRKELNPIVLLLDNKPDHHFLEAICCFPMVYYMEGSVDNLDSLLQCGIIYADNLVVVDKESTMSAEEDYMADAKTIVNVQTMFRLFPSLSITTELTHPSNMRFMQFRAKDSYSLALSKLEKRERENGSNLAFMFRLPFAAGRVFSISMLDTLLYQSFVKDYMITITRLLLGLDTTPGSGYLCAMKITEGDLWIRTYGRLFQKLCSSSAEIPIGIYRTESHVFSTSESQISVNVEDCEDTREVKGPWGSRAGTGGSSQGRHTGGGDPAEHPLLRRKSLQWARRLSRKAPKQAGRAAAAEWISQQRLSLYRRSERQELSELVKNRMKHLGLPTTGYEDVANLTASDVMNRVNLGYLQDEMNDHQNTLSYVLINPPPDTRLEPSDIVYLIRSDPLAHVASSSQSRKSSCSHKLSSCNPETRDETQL
# UniProt Q9UBN7, whole entry: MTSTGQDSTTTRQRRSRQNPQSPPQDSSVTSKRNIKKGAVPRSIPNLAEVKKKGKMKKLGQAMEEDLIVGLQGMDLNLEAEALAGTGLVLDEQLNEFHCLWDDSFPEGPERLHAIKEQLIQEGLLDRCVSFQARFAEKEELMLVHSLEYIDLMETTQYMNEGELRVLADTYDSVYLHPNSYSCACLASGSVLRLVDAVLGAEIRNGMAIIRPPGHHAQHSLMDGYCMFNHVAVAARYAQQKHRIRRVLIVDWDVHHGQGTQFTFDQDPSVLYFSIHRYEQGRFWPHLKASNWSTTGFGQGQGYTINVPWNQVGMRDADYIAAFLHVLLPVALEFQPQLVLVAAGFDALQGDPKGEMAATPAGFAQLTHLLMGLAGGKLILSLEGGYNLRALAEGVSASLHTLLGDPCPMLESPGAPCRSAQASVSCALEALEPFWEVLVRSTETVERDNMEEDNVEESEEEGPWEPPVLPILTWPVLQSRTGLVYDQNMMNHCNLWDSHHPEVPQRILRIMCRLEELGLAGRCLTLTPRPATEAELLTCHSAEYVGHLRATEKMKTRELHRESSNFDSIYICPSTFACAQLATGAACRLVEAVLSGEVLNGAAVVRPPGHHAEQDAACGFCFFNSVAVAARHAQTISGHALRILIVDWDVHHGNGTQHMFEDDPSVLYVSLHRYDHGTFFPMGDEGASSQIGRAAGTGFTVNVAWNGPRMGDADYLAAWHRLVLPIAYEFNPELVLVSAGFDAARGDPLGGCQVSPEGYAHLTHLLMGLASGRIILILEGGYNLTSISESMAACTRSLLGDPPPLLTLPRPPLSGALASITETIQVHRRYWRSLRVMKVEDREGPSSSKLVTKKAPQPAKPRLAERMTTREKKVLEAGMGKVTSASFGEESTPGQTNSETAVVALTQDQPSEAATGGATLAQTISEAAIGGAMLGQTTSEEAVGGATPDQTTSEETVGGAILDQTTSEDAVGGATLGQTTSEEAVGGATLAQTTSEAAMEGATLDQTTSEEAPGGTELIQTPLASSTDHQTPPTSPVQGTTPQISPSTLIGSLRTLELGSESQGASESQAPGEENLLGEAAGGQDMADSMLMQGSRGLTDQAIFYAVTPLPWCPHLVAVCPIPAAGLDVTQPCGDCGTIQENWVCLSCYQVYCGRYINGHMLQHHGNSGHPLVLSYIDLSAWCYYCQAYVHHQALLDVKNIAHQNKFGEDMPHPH
# UniProt Q3TBT3, whole entry: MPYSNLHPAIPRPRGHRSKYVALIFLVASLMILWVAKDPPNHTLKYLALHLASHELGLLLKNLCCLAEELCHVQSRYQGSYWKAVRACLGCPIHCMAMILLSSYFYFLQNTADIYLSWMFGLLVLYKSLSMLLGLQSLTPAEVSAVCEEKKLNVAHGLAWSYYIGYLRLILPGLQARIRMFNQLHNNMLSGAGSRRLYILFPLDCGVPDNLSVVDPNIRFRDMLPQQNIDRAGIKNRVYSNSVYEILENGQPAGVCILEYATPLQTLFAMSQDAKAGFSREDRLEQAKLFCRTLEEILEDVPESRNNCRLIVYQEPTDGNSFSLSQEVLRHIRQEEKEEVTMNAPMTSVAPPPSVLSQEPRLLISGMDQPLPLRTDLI
# UniProt P56450, whole entry: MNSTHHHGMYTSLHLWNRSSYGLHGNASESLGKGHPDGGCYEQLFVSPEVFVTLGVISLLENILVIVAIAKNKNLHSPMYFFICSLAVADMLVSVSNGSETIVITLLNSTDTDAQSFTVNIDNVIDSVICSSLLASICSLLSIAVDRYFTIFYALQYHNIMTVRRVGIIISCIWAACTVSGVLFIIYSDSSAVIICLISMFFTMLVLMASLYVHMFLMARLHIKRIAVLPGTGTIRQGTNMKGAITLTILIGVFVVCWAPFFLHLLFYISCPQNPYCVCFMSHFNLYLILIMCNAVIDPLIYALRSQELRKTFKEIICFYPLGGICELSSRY
# Lines come from different studies, so protocols differ. ± marks the error that the study gave.
# GRM4: Metabotropic glutamate receptor 4 (GRM4, Homo sapiens, UniProt Q14833)
# FPR2: N-formyl peptide receptor 2 (FPR2, Homo sapiens, UniProt P25090)
# GLP1R: Glucagon-like peptide 1 receptor (GLP1R, Homo sapiens, UniProt P43220)
# Lysophospholipase-like protein 1: Lysophospholipase-like protein 1 (Mus musculus, UniProt Q3UFF7)
# Trace amine-associated receptor 1: Trace amine-associated receptor 1 (Rattus norvegicus, UniProt Q923Y9)
Compound,target,test,test system,setting,scale,EC50 [nM]
O=C(Nc1ccc(F)c(F)c1)C12CC1/C(=N\O)c1ccccc1O2 (centres unmarked),GRM4,"calcium mobilization, positive allosteric modulator",CHO hmGluR4/Gqi5,with: glutamate EC20,,> 5000
NCC(c1ccccc1)c1cccc(Oc2ccccc2)c1 (centres unmarked),"Taar1 (Mus musculus, UniProt Q923Y8, T268M/Y287N)","cAMP production, agonist",,double mutant,,43 ± 5
Cc1cnc(C#Cc2cccc(-c3nn(-c4nc(C(=O)O)cs4)c(CCC4CC4)c3Cc3ccc(S(N)(=O)=O)c(F)c3)c2)s1,"LDHA (Homo sapiens, UniProt P00338)","thermal stabilisation, CETSA",HEK293,"3.5 min, 71 °C",,10
COc1ccc(NC(=O)CN2CCCN(S(=O)(=O)c3ccc(Cl)c(F)c3)CC2)c(OC)c1,GRM4,"calcium mobilization, positive allosteric modulator",CHO cells with Gqi5,with: glutamate EC20,,4500 ± 700
COc1ccc(NC(=O)N[C@H](Cc2ccc(C#N)cc2)C(=O)NCC2(c3cccc(O)c3)CC2)cc1,FPR2,"calcium mobilization, agonist",FPR2-transfected HL-60,,,2600 ± 140
Cc1ccc(F)cc1S(=O)(=O)n1nc(SCc2ccccc2)nc1N,"LYPLAL1 (Homo sapiens, UniProt Q5VWZ2)","enzyme activity, activator, gel-based ABPP, FP-rhodamine",purified protein,,,> 20000
CCC(C)(N)c1cn(CC(C)(C)c2c[nH]c3ccccc23)nn1 (centres unmarked),GLP1R,"cAMP accumulation, positive allosteric modulator, HTRF",CHO-K1 expressing GLP1R,"crude reaction product, with: GLP-1(9-36) at EC20",,1160
Oc1ccc(N=Cc2c(O)ccc3ccccc23)cc1,"CDK2 (Homo sapiens, UniProt P24941)",ANS displacement,,"5 % DMSO, with: ANS 50 µM",relative to: staurosporine 0 µM,12000 ± 800
COc1ccc(NC(=O)CN2CCCN(S(=O)(=O)c3ccsc3)CC2)c(OC)c1,GRM4,"calcium mobilization, positive allosteric modulator",CHO cells with Gqi5,with: glutamate EC20,,> 10000
O=C(N[C@@H]1CCc2ccccc21)C1CCN(S(=O)(=O)c2ccc3[nH]ncc3c2)CC1,"CHRM5 (Homo sapiens, UniProt P08912)","positive allosteric modulator, calcium mobilization",CHO cells expressing human M5,with: acetylcholine EC20,,> 10000
Cc1nc(-c2ccc(OCC(C)C)c(C#N)c2)sc1C(N)=O,"Grm2/Grm4 (Rattus norvegicus, UniProt P31421+P31423)","thallium flux, positive allosteric modulator",HEK293 GIRK,with: glutamate EC20,,2200
CCCn1c(NCc2cccc(Cl)c2O)nc2ccccc21,"ALDH1A3 (Homo sapiens, UniProt P47895)","enzyme activity, inhibitor, NADH absorbance 340 nm",,"pH 7.5, 25 °C, 200 µM NAD+, with: 100 µM propionaldehyde",,79 ± 30
CC(C)(Cn1cc(-c2ccc(B(O)O)cc2)nn1)c1c[nH]c2ccccc12,GLP1R,"cAMP accumulation, positive allosteric modulator, HTRF",CHO-K1 expressing GLP1R,"purified compound, with: GLP-1(9-36) at EC20",,1050 ± 324
Cc1c(=O)n(C)c(Nc2ccc(I)cc2F)c2c(=O)n(C3CC3)c(=O)n(-c3cccc(NC(=O)CCOCCOCCNC(=O)CCC4=[N+]5C(=Cc6ccc(-c7ccc[nH]7)n6[B-]5(F)F)C=C4)c3)c12,"MAP2K1 (Homo sapiens, UniProt Q02750)","binding, NanoBRET",HEK-293T,MEK1-NanoLuc alone,,5.6 ± 0.6
Nc1nc(NCCc2ccc(Cl)cc2)nn1S(=O)(=O)C1CCCCC1,Lysophospholipase-like protein 1,"enzyme activity, activator, gel-based ABPP, FP-rhodamine",purified protein,,,> 20000
COc1cccc(Cc2cc(C)nn(C(C(=O)Nc3ccc(Br)cc3)c3ccccc3)c2=O)c1 (racemic),FPR2,"calcium mobilization, agonist",HL-60 transfected with FPR2,,,1800
Cc1ccc2c(c1)C(n1cc(CNc3ccc(C(=O)NCCC(=O)O)cc3)nn1)CCC2 (centres unmarked),GLP1R,"cAMP accumulation, positive allosteric modulator, HTRF",CHO-K1 expressing GLP1R,with: GLP-1 at EC20,,5180
O=S(=O)(c1cccc(C(F)(F)F)c1)N1CCC(Cn2cnc3ccccc32)CC1,"KCNT1 (Homo sapiens, UniProt Q5JUK3)","thallium flux, activator",HEK293 expressing KCNT1,,,4300
Cc1ccc(S(=O)(=O)OCCc2cn(CCc3c(C)[nH]c4cc(Cl)cc(Cl)c34)nn2)cc1,GLP1R,"cAMP accumulation, positive allosteric modulator, HTRF",CHO-K1 expressing GLP1R,"purified compound, with: GLP-1(9-36) at EC20",,950 ± 203
O=C(CCCCCONC(=O)c1cc2ccccc2[nH]1)NO,"HDAC6 (Homo sapiens, UniProt Q9UBN7)",enzyme activity,,,,1 to 100
NCCCCNC(=O)[C@H](Cc1ccccc1)NC(=O)N1CCc2ccccc2C1,"Melanocortin receptor 3 (Mus musculus, UniProt P33033)","reporter gene, agonist, β-galactosidase reporter",HEK293 stably expressing Melanocortin receptor 3,,,> 100000
CCn1nc(C)cc1C(=O)Nc1nc2cc(C(N)=O)cc(OC)c2n1C/C=C/Cn1c(NC(=O)c2cc(C)nn2CC)nc2cc(C(N)=O)cc(OCCOCCNC(=O)CCCCCN3C(=O)C=CC3=O)c21,"Sting1 (Mus musculus, UniProt Q3TBT3)","IFN-β secretion, agonist, ELISA",mouse BMDCs,carrier-free cysteine-blocked click,,949
CCCC(O)c1cn(CCc2c(C)[nH]c3cc(Cl)cc(Cl)c23)nn1 (centres unmarked),GLP1R,"cAMP accumulation, positive allosteric modulator, HTRF",CHO-K1 expressing GLP1R,"purified compound, with: GLP-1(9-36) at EC20",,536 ± 132
COc1ccc(NC(=O)CN2CCCN(S(=O)(=O)c3ccc(OC(F)(F)F)cc3)CC2)c(OC)c1,GRM4,"calcium mobilization, positive allosteric modulator",CHO cells with Gqi5,with: glutamate EC20,,> 10000
COc1cc(Nc2ncc3c(n2)-c2ccc(Cl)cc2C(c2c(F)cccc2OC)=NC3)ccc1C(=O)NCCOCCOCCOCCOCC(=O)N[C@H](C(=O)N1C[C@H](O)C[C@H]1C(=O)NCc1ccc(-c2scnc2C)cc1)C(C)(C)C,"Aurora kinase A (AURKA, Homo sapiens, UniProt O14965)","target engagement, NanoBRET",HEK293,2 h,,471 ± 160
O=C(Nc1ccc([N+](=O)[O-])cc1)N[C@@H](Cc1c[nH]c2ccccc12)C(=O)NCC1(c2ccccn2)CCCCC1,FPR2,"β-arrestin recruitment, agonist",CHO-K1 expressing FPR2,,,12100 ± 3400
NCCCCNC(=O)[C@H](Cc1ccc(I)cc1)NC(=O)N1CCc2ccccc2C1,"Melanocortin receptor 4 (Mus musculus, UniProt P56450)","reporter gene, agonist, β-galactosidase reporter",HEK293 stably expressing Melanocortin receptor 4,,,17000 ± 4300
COc1cccc(N2CCN(CCCCn3ncc(=O)n(C)c3=O)CC2)c1,"HTR1A (Homo sapiens, UniProt P08908)",agonist,CHO cell membranes,,,0.7
NCC(c1ccc(O)cc1)c1ccc(Oc2ccccc2)cc1 (centres unmarked),Trace amine-associated receptor 1,"cAMP production, agonist",HEK293,,,6 ± 1
Cn1c(=O)oc2ccc(S(=O)(=O)n3nc(SCc4ccc(Cl)cc4)nc3N)cc21,Lysophospholipase-like protein 1,"enzyme activity, activator, gel-based ABPP, FP-rhodamine",purified protein,,,380
Cc1[nH]c2cc(Cl)cc(Cl)c2c1CCn1cc(C2(O)COC2)nn1,GLP1R,"cAMP accumulation, positive allosteric modulator, HTRF",CHO-K1 expressing GLP1R,"crude reaction product, with: GLP-1(9-36) at EC20",,394
NC(=O)c1cccc(S(=O)(=O)n2nc(CCCc3ccc(Cl)cc3)nc2N)c1,Lysophospholipase-like protein 1,"enzyme activity, activator, gel-based ABPP, FP-rhodamine",purified protein,,,> 20000
COc1ccc(NC(=O)CN2CCCN(S(=O)(=O)c3ccccc3)CC2)c(OC)c1,GRM4,"calcium mobilization, positive allosteric modulator",CHO cells with Gqi5,with: glutamate EC20,,3500 ± 700
NCC(c1ccc(O)cc1)c1ccc(Oc2ccc(O)cc2)c(I)c1 (centres unmarked),Trace amine-associated receptor 1,"cAMP production, agonist",HEK293,,,4 ± 1
CNc1ccc(N)cc1-n1cnc(-c2ccc(C(F)(F)F)cc2)c1,"Toll-like receptor 1/2 (Homo sapiens, UniProt O60603+Q15399)","reporter gene, agonist, SEAP reporter",HEK-Blue hTLR2,24 h,,> 100000
